Results pooled from the literature.
A part holds a random share of what one study measured. Changes are numbered by the printed parent chain.

Block 1
Target: CCND2, cyclin fold, Cln2 fusion (human)
Method: yeast growth competition, sequencing
Medium: yeast
Setting: weak parent motif
Baseline: not given
Reading: higher = stronger binding
Starting sequence: CDKN1A docking peptide (human); SKACRRLFGPVDS
For `R5S`, “normalised enrichment score” read -0.251.
Under “normalised enrichment score”, `A3L` is recorded as 0.0108.
`D12Y` — result for “normalised enrichment score”: 0.0946.
`A3E` — result for “normalised enrichment score”: 0.297.
For `K2Y`, “normalised enrichment score” read 0.556.
Under “normalised enrichment score”, `G9D` is recorded as 0.302.
For `C4D`, “normalised enrichment score” read -0.0239.
Under “normalised enrichment score”, `F8M` is recorded as 0.162.
`R5N` — result for “normalised enrichment score”: 0.0305.
`R6L` — result for “normalised enrichment score”: 0.267.
`R6H` — result for “normalised enrichment score”: 0.325.
For `G9Y`, “normalised enrichment score” read 0.593.
`L7C`: “normalised enrichment score” -0.0364.
Under “normalised enrichment score”, `G9S` is recorded as 0.192.
Under “normalised enrichment score”, `C4H` is recorded as 0.121.
`A3Q`: “normalised enrichment score” -0.0887.
Under “normalised enrichment score”, `A3I` is recorded as 0.0966.

Block 2
Target: Fragile X messenger ribonucleoprotein 1, C-terminal low-complexity region (Fmr1, Mus musculus, UniProt P35922)
Method: RNA Bind-n-Seq
Form: RNA
Medium: in vitro
Tested at: 200 nM
Setting: whole 134-nt RNA, ends assumed
Together with: 150 mM KCl
Baseline: input library
Reading: higher = stronger binding
Shared flanks, not repeated: GGGAGUUCUACAGUCCGACGAUC … UGGAAUUCUCGGGUGUCAAGG
For `CAAGUCCUGUGCUACACAUCGUAUGUACCGAAUCGGGAAAGGGAAAGGAAAGGGGAAAGUAUUAUGUUACGCCGUUCGGAUCUGCACUUC`, the log2 enrichment was 0.28.
The log2 enrichment of `GUCCUGUGCUACACAUCGUAUGUACCGAAUCGGGAAAAAGGGAAAAAGGGUUUUUGGGAAAGUAUUAUGUUACGCCGUUCGGAUCUGCAC` is reported as -0.508.
The log2 enrichment of `CCUGUGCUACACAUCGUAUGUACCGAAUCAAACCCCCCCAAACCCCCAAACCCCCCCAAAAAAGUAUUAUGUUACGCCGUUCGGAUCUGC` is reported as 0.688.
The log2 enrichment of `UAACUUUAGAGGAGGAUCUGAUGGAUAUGGCAGUGGACGUGGAUUUGGGGAUGGCUAUAAUAGGUAUGGAGGAGGACCUGGAGGUGGCAA` is reported as 0.35.
`CCUGUGCUACACAUCGUAUGUACCGAAUCAAAUUUUUUUAAAUUUUUAAAUUUUUUUAAAAAAGUAUUAUGUUACGCCGUUCGGAUCUGC` has a log2 enrichment of -0.985.
With `UCAUUCUAUACAGCCUUUUGUUUCAUUAGGAUCAGGCAGCUAGAGACAUGAAGAGGCUUGAAGAAAAGGACAAGGAAAGAAAAAACGUAA` the log2 enrichment was -1.37.
`AAGUCCUGUGCUACACAUCGUAUGUACCGAAUCGGGAAAAGGAAAAGGGAAAAGGGAAAGUAUUAUGUUACGCCGUUCGGAUCUGCACUU` gave a log2 enrichment of -0.473.
For `GUCCUGUGCUACACAUCGUAUGUACCGAAUCGGGAAAAAGGAAAAAGGGAAAAAGGGGAAAGUAUUAUGUUACGCCGUUCGGAUCUGCAC`, the log2 enrichment was -0.151.
The log2 enrichment of `UAACUUUAGAGGAGGAUCUGAUGGAUAUGGCAGUGGACGUGGCUUUGGGGAUGGCUAUAAUGGGUAUGGAGGAGGACCUGGAGGUGGCAA` is reported as 0.158.

Block 3
Target: CEBPE, bZIP domain (human)
Method: DHFR protein complementation
Medium: yeast
Setting: single substitutions, most at no-binding floor
Baseline: wild-type JUN-FOS pair
Reading: higher = stronger binding
Starting sequence: JUN, bZIP domain (human); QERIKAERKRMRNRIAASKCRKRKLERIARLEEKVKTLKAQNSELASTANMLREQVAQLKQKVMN; partner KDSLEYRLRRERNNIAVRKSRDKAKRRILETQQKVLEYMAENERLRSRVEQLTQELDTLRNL
`K34M` gave a binding fitness of -1.1 natural log.
`K36D` has a binding fitness of -1.18 natural log.
The binding fitness of `N42P` is reported as -1.5 natural log.
`A29R` gave a binding fitness of -1.11 natural log.
`T48H` has a binding fitness of -1.14 natural log.
For `E32K`, the binding fitness was -1.34 natural log.
The binding fitness of `E32Q` is reported as -1.32 natural log.
For `L52A`, the binding fitness was -1.52 natural log.
With `R53A` the binding fitness was -0.668 natural log.

Block 4
Target: Transcriptional repressor CTCF (CTCF, Homo sapiens, UniProt P49711, residues 1-727, full length assumed)
Method: protein-binding microarray
Form: double-stranded DNA, one strand shown
Medium: in vitro
Tested at: not given
Setting: k-mer, scored over probes, only values ≥0.25
Reading: higher = stronger binding
Target sequence (chain): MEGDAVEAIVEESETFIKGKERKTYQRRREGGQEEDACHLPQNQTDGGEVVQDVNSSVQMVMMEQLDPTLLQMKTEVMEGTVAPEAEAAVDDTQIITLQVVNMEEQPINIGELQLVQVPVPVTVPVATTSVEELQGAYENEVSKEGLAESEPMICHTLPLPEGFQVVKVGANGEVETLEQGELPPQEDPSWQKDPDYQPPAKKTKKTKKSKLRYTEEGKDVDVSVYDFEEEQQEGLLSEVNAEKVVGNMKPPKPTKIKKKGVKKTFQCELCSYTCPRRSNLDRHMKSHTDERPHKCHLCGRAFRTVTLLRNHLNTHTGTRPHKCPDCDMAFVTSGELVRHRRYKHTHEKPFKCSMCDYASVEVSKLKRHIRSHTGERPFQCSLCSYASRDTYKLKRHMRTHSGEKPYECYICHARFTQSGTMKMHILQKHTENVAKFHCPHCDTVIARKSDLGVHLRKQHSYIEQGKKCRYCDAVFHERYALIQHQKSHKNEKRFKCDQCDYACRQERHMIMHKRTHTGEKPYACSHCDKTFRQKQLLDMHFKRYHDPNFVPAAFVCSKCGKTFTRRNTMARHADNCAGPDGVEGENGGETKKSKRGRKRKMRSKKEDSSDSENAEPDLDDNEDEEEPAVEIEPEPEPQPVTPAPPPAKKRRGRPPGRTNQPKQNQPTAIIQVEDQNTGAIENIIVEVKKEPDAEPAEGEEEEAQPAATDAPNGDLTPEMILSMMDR
`AAAAGTAT` gave an E-score of 0.293.
With `AAATTACC` the E-score was 0.29.
The E-score of `TATAACGA` is reported as 0.302.
The E-score of `CTCTTATA` is reported as 0.325.
For `TTGCGCAA`, the E-score was 0.314.
`CATTCATA` has an E-score of 0.37.
`CACAAATA` has an E-score of 0.336.
`AACATTAC` has an E-score of 0.295.
The E-score of `ATATGATA` is reported as 0.335.
`ATAAGCAA` has an E-score of 0.261.
`AAAAGCGC` has an E-score of 0.293.
`ATATTTTA` has an E-score of 0.321.
The E-score of `AGTAGGGG` is reported as 0.333.
With `AATTTTAC` the E-score was 0.331.
The E-score of `CATTATCA` is reported as 0.277.
With `CGTGTATA` the E-score was 0.295.
For `GATGTATA`, the E-score was 0.264.
With `CGCGCGCC` the E-score was 0.309.
`CCTTTTCA` has an E-score of 0.321.
`CATTATTA` gave an E-score of 0.353.
For `ATATTACA`, the E-score was 0.36.

Block 5
Target: ABI1, truncated, D143A, DHFR fusion (Arabidopsis thaliana)
Method: DHFR PCA, deep sequencing
Medium: yeast
Setting: methotrexate growth selection, single substitutions
Together with: (+)-ABA 0.032 µM
Baseline: wild-type fitted maximum
Reading: higher = stronger binding
Starting sequence: PYL1, truncated, DHFR fusion (Arabidopsis thaliana); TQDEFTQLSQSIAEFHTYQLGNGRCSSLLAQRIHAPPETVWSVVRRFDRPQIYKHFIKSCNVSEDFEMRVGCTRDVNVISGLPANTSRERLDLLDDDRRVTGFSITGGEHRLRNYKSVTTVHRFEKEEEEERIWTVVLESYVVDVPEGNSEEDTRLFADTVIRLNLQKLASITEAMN; partner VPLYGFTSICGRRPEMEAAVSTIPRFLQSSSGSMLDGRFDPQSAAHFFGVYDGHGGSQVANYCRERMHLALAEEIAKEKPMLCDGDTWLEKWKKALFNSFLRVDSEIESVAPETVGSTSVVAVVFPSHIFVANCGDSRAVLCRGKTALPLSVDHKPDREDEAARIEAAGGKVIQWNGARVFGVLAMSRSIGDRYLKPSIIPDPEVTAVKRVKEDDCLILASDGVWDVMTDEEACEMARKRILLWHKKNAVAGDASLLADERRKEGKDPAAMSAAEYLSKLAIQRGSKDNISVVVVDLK
`V137H` — result for “relative binding score”: -8.98%.
`V62S` — result for “relative binding score”: 0.055%.
Under “relative binding score”, `L169S` is recorded as -0.00356%.
`E151Q`: “relative binding score” 22.1%.
`I79D`: “relative binding score” -5.76%.
Under “relative binding score”, `V121C` is recorded as 5.18%.
`M176G` — result for “relative binding score”: 7.14%.
`I133W` — result for “relative binding score”: 9.38%.
Under “relative binding score”, `S9I` is recorded as 14.2%.
`E14K` — result for “relative binding score”: 6.61%.
`L93R`: “relative binding score” 5.6%.
For `R98G`, “relative binding score” read -0.324%.
`L138G`: “relative binding score” -1.21%.

Single results of other studies
With `PhoQ, residues 284 288 289 292 302 303 SQSLSM` the fold induction was 15.5 (PhoP, residues 12 14 15 18 19 SFCSL (Escherichia coli, UniProt P23836); Sort-seq, refers to: YFP reporter; E. coli; PhoQ-PhoP variant library, together with: 10 µM Mg2+; baseline: high Mg2+ state, higher = stronger signaling).

Repeated from above (block 2):
For `CAAGUCCUGUGCUACACAUCGUAUGUACCGAAUCGGGAAAGGGAAAGGAAAGGGGAAAGUAUUAUGUUACGCCGUUCGGAUCUGCACUUC`, the log2 enrichment was 0.28.
The log2 enrichment of `GUCCUGUGCUACACAUCGUAUGUACCGAAUCGGGAAAAAGGGAAAAAGGGUUUUUGGGAAAGUAUUAUGUUACGCCGUUCGGAUCUGCAC` is reported as -0.508.
The log2 enrichment of `CCUGUGCUACACAUCGUAUGUACCGAAUCAAACCCCCCCAAACCCCCAAACCCCCCCAAAAAAGUAUUAUGUUACGCCGUUCGGAUCUGC` is reported as 0.688.
The log2 enrichment of `UAACUUUAGAGGAGGAUCUGAUGGAUAUGGCAGUGGACGUGGAUUUGGGGAUGGCUAUAAUAGGUAUGGAGGAGGACCUGGAGGUGGCAA` is reported as 0.35.
`CCUGUGCUACACAUCGUAUGUACCGAAUCAAAUUUUUUUAAAUUUUUAAAUUUUUUUAAAAAAGUAUUAUGUUACGCCGUUCGGAUCUGC` has a log2 enrichment of -0.985.
With `UCAUUCUAUACAGCCUUUUGUUUCAUUAGGAUCAGGCAGCUAGAGACAUGAAGAGGCUUGAAGAAAAGGACAAGGAAAGAAAAAACGUAA` the log2 enrichment was -1.37.
`AAGUCCUGUGCUACACAUCGUAUGUACCGAAUCGGGAAAAGGAAAAGGGAAAAGGGAAAGUAUUAUGUUACGCCGUUCGGAUCUGCACUU` gave a log2 enrichment of -0.473.
For `GUCCUGUGCUACACAUCGUAUGUACCGAAUCGGGAAAAAGGAAAAAGGGAAAAAGGGGAAAGUAUUAUGUUACGCCGUUCGGAUCUGCAC`, the log2 enrichment was -0.151.
The log2 enrichment of `UAACUUUAGAGGAGGAUCUGAUGGAUAUGGCAGUGGACGUGGCUUUGGGGAUGGCUAUAAUGGGUAUGGAGGAGGACCUGGAGGUGGCAA` is reported as 0.158.
